Assay results from different studies.
Compare with care: the assays were run in different laboratories. Numbers after ± are the reported error.
Ugcg: Ceramide glucosyltransferase (Ugcg, Mus musculus, UniProt O88693)
Chain of UniProt O88693 (whole entry, looked up): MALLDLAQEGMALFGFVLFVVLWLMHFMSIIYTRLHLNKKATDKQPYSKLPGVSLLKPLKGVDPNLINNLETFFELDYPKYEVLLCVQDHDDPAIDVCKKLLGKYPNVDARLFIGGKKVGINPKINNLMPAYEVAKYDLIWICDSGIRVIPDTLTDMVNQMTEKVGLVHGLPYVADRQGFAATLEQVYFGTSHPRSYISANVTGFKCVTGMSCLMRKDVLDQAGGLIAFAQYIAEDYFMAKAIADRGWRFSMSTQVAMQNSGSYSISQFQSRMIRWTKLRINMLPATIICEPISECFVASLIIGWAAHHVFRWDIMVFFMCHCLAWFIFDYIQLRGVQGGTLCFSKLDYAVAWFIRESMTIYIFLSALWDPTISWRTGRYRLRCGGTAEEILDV
Chain of UniProt P10635 (whole entry, looked up): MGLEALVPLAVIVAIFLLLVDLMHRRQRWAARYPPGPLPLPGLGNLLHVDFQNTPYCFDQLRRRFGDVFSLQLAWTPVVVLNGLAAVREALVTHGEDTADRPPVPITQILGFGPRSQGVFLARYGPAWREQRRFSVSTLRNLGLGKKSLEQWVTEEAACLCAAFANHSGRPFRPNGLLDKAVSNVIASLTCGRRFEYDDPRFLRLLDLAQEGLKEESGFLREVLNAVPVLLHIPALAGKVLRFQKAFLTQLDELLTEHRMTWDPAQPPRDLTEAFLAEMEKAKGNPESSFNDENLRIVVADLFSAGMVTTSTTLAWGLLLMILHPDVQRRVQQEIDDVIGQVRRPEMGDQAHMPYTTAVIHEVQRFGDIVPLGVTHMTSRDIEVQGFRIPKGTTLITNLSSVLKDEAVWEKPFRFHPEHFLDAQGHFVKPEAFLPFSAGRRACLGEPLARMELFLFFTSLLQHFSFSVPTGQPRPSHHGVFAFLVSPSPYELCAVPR

N#C[C@@H]1CC(F)(F)CN1C(=O)CNC(=O)c1ccnc2c(NC(=O)[C@H](CCCCNC(=O)CCOCCOCCOCCOCCOCCOCCNC(=O)CN3CCN(CC(=O)[O-])CCN(CC(=O)[O-])CCN(CC(=O)[O-])CC3)NC(=O)CCCc3ccc(I)cc3)cccc12.[177Lu+3] — tracer uptake (U-87 MG tumour model; host not given, heart; 72 h, tumour-bearing): 0.23 %ID/g
CC[n+]1cccc2cc(/C=N/NC(=O)c3cc(C(=O)N/N=C/c4ccc5c(ccc[n+]5CC)c4)ncn3)ccc21 — ΔTm (22CTA telomeric G4-DNA antiparallel; FRET melting; 1 µM, K10 buffer, DNA 0.2 µM): 5.5 ± 1.1 °C
N#Cc1cc(NC(=O)c2cc(-c3ccccc3)n(-c3ccccc3)n2)ccc1N1CCOCC1 — CC50 (HeLa; cell growth or viability): > 50 µM
OC[C@@H]1[C@@H](O)[C@H](O)[C@@H](O)CN1CCCCCOCc1ccc(-c2ccc3c(c2)OCCCO3)cc1 — IC50 (Ugcg; enzyme activity, inhibitor, fluorescence): 0.025 µM
COC(=O)CC[C@@H](NC(=O)[C@@H](Cc1ccc(OP(=O)(O)O)cc1)NC(=O)[C@@H](Cc1ccccc1)NC(=O)[C@@H](Cc1ccccc1)NC(=O)Cc1ccc2ccccc2c1)C(=O)OC — ester hydrolysis (carboxylesterase; substrate; 200 µM, 3 h, pH 7.4, 37 °C, with: carboxylesterase 1 U/mL): 20.4%
CC(C)Cc1ccc(C(C)C(=O)N[C@@H](CCCCNC(=O)CCOCCOCCOCCOCCOCCOCCNC(=O)CN2CCN(CC(=O)[O-])CCN(CC(=O)[O-])CCN(CC(=O)[O-])CC2)C(=O)Nc2cccc3c(C(=O)NCC(=O)N4CC(F)(F)C[C@H]4C#N)ccnc23)cc1.[177Lu+3] (stereo partly shown) — tracer uptake (U-87 MG tumour model; host not given, liver; 24 h, tumour-bearing): 2.71 %ID/g
Cc1ccc(-c2ccc(C3CCCCC3)cc2)cn1 — hepatic clearance (liver microsome stability; mouse liver microsomes; 1 µM): 76 mL/min/kg
COc1cccc(OC)c1-c1cc(C(=O)NC2(C(=O)O)C3CC4CC(C3)CC2C4)nn1-c1ccc(C(=O)N(C)CCOCCOCCN(C)C(=O)[C@H](CCCCNC(=O)[C@H](CC(C)C)NC(=O)C2OC2C(=O)O)NC(=O)CN2CCN(CC(=O)[O-])CCN(CC(=O)[O-])CCN(CC(=O)[O-])CC2)cc1C(C)C.[177Lu+3] (mixture of isomers) — tracer uptake (HT-29 tumour model; host not given, pancreas; 4 h, tumour-bearing): 0.6 %ID/g
Cc1cc(=O)c2c(O)c3c(O[C@@H]4O[C@H](CO)[C@@H](O)[C@H](O)[C@H]4O)cc(O)cc3cc2o1 — cell viability (HepaRG co-cultured with HK-2; MTT; 66.67 µM, 24 h; reference: untreated control): 86.6 ± 16.8%
O=C(NCCOc1ccc(F)cc1)c1ccc([C@H]2[C@@H](F)[C@@H](F)C[C@@H](F)[C@H]2F)cc1 — hepatic clearance (liver microsome stability; mouse liver microsomes; 1 µM): 62 mL/min/kg
CNC(=O)C1CCCN(C(=O)C2CC3CCC2N3C(=O)[C@@H]2C[C@@H](O)CN2C(=O)NCc2cccc(Cl)c2F)C1 (mixture of isomers) — remaining activity (Cytochrome P450 2D6 (CYP2D6, Homo sapiens, UniProt P10635); enzyme activity, inhibitor, time-dependent inhibition; 5.56 µM, preincubated without NADPH; reference: negative control): 99.1%
CC(C)C[C@@H]1NC(=O)[C@H](CO)NC(=O)[C@H](CC(=O)O)NC(=O)[C@@H]2CCCN2C(=O)[C@H]2CCCN2C(=O)[C@H](C(C)C)NC(=O)[C@H](CC(=O)O)NC(=O)[C@H](CC(N)=O)NC(=O)[C@H](CCCNC(=N)N)NC(=O)[C@H]([C@@H](C)O)NC(=O)[C@H](C(C)C)NC(=O)CCNC(=O)CCNC(=O)[C@H](Cc2ccccc2)NC(=O)[C@H](C(C)C)NC(=O)[C@H](CC(C)C)NC1=O — concentration (HEK-293T; subcellular fractionation LC-MS; cytoplasmic fraction; 20 µM, 2 h): not detected
CCN(CC)CC#CCNc1ccnc2cc(Cl)ccc12 — revertants (Salmonella typhimurium; mini-Ames test; TA102; 62.5 µg/well, without S9): 74 revertants/well
Nc1nc2cc(C(=O)c3ccc(F)cc3)ccc2[nH]1 — revertants (Salmonella typhimurium; Ames preincubation test; TA100; 19.5 µg per plate, 3 days, without S9): 140 revertants per plate
O=C(CC(F)(F)F)Nc1ccc(C2CCCCC2)cc1 — hepatic clearance (liver microsome stability; human liver microsomes; 1 µM, without NADPH): 11 mL/min/kg
CC(C)(C)NCC(SS(=O)(=O)O)c1ccccc1 (stereo not shown) — body weight decrease (Schistosoma mansoni; perfusion day 52; infected Swiss Webster mice; 400 mg/kg single dose, dosed day 7 post-infection; reference: vehicle control): -0.238%
O=C(N/N=C/c1ccc2c(ccc[n+]2Cc2ccccc2)c1)c1cncc(C(=O)N/N=C/c2ccc3c(ccc[n+]3Cc3ccccc3)c2)n1 — ΔTm (22CTA telomeric G4-DNA antiparallel; FRET melting; 1 µM, K10 buffer, DNA 0.2 µM, with: ds26 10 µM): 16.4 ± 0.4 °C
CCCCCCN1C[C@H](O)[C@@H](O)[C@H](O)[C@H]1CO — IC50 (Ugcg; enzyme activity, inhibitor, fluorescence): 20 µM
O=C(NCCOc1ccc(F)cc1)c1ccc(C2CCCCC2)cc1 — hepatic clearance (liver microsome stability; dog liver microsomes; 1 µM): 28 mL/min/kg

For quick reference, copied from above:
CNC(=O)C1CCCN(C(=O)C2CC3CCC2N3C(=O)[C@@H]2C[C@@H](O)CN2C(=O)NCc2cccc(Cl)c2F)C1 (mixture of isomers) — remaining activity (Cytochrome P450 2D6 (CYP2D6, Homo sapiens, UniProt P10635); enzyme activity, inhibitor, time-dependent inhibition; 5.56 µM, preincubated without NADPH; reference: negative control): 99.1%
N#C[C@@H]1CC(F)(F)CN1C(=O)CNC(=O)c1ccnc2c(NC(=O)[C@H](CCCCNC(=O)CCOCCOCCOCCOCCOCCOCCNC(=O)CN3CCN(CC(=O)[O-])CCN(CC(=O)[O-])CCN(CC(=O)[O-])CC3)NC(=O)CCCc3ccc(I)cc3)cccc12.[177Lu+3] — tracer uptake (U-87 MG tumour model; host not given, heart; 72 h, tumour-bearing): 0.23 %ID/g
CCCCCCN1C[C@H](O)[C@@H](O)[C@H](O)[C@H]1CO — IC50 (Ugcg; enzyme activity, inhibitor, fluorescence): 20 µM
